Literature values as cited in several papers.
Each line is one published result; not all experiments were run side by side. ± marks the error that the study gave.

Molecule	target	test	test system	setting	how to read	measurement	value
COc1ccc(CC(C)NCC(O)c2ccc(O)c(NC=O)c2)cc1 (stereo not drawn)	β2-adrenergic receptor, human	binding				residence time	0.33 min
CCOP(=O)(OCC)Oc1nc(Cl)c(Cl)cc1Cl	neuropathy target esterase human	enzyme activity, inhibitor	differentiated SH-SY5Y	60 min		IC50	0.069 µM
C=C(C)[C@@H]1[C@H]2OC(=O)[C@@H]1[C@]1(O)C[C@H]3O[C@]34C(=O)O[C@H]2[C@]14C	GABA-A receptor beta-3 homopentamer	binding				affinity	32 nM
dimethyl sulfoxide	acetylcholinesterase Electrophorus electricus					Ki	80000 µM
Cc1cn(CC(=O)N(CCNC(=O)CN(CCNC(=O)CN(CCNC(=O)CN(CCNC(=O)CN(CCNC(=O)CN(CCNC(=O)CN(CCNC(=O)CN(CCNC(=O)CN(CCNC(=O)CN(CCNC(=O)COCCOCCNC(=O)COCCOCCNC(=O)[C@H](CNC(=O)[C@H](CNC(=O)[C@H](CNC(=O)[C@H](CNC(=O)COCCOCCNC(=O)CN2CCN(CC(=O)O)CCN(CC(=O)O)CCN(CC(=O)O)CC2)NC(=O)COCCOCCNC(=O)CN2CCN(CC(=O)O)CCN(CC(=O)O)CCN(CC(=O)O)CC2)NC(=O)[C@H](CNC(=O)COCCOCCNC(=O)CN2CCN(CC(=O)O)CCN(CC(=O)O)CCN(CC(=O)O)CC2)NC(=O)COCCOCCNC(=O)CN2CCN(CC(=O)O)CCN(CC(=O)O)CCN(CC(=O)O)CC2)NC(=O)[C@H](CNC(=O)[C@H](CNC(=O)COCCOCCNC(=O)CN2CCN(CC(=O)O)CCN(CC(=O)O)CCN(CC(=O)O)CC2)NC(=O)COCCOCCNC(=O)CN2CCN(CC(=O)O)CCN(CC(=O)O)CCN(CC(=O)O)CC2)NC(=O)[C@H](CNC(=O)COCCOCCNC(=O)CN2CCN(CC(=O)O)CCN(CC(=O)O)CCN(CC(=O)O)CC2)NC(=O)COCCOCCNC(=O)CN2CCN(CC(=O)O)CCN(CC(=O)O)CCN(CC(=O)O)CC2)NC(=O)[C@H](CNC(=O)[C@H](CNC(=O)[C@H](CNC(=O)COCCOCCNC(=O)CN2CCN(CC(=O)O)CCN(CC(=O)O)CCN(CC(=O)O)CC2)NC(=O)COCCOCCNC(=O)CN2CCN(CC(=O)O)CCN(CC(=O)O)CCN(CC(=O)O)CC2)NC(=O)[C@H](CNC(=O)COCCOCCNC(=O)CN2CCN(CC(=O)O)CCN(CC(=O)O)CCN(CC(=O)O)CC2)NC(=O)COCCOCCNC(=O)CN2CCN(CC(=O)O)CCN(CC(=O)O)CCN(CC(=O)O)CC2)NC(=O)[C@H](CNC(=O)[C@H](CNC(=O)COCCOCCNC(=O)CN2CCN(CC(=O)O)CCN(CC(=O)O)CCN(CC(=O)O)CC2)NC(=O)COCCOCCNC(=O)CN2CCN(CC(=O)O)CCN(CC(=O)O)CCN(CC(=O)O)CC2)NC(=O)[C@H](CNC(=O)COCCOCCNC(=O)CN2CCN(CC(=O)O)CCN(CC(=O)O)CCN(CC(=O)O)CC2)NC(=O)COCCOCCNC(=O)CN2CCN(CC(=O)O)CCN(CC(=O)O)CCN(CC(=O)O)CC2)C(=O)Cn2cnc3c(=O)[nH]c(N)nc32)C(=O)Cn2ccc(N)nc2=O)C(=O)Cn2ccc(N)nc2=O)C(=O)Cn2cnc3c(N)ncnc32)C(=O)Cn2cnc3c(N)ncnc32)C(=O)Cn2ccc(N)nc2=O)C(=O)Cn2cnc3c(N)ncnc32)C(=O)Cn2cnc3c(=O)[nH]c(N)nc32)C(=O)Cn2ccc(N)nc2=O)CC(=O)NCCN(CC(=O)NCCN(CC(=O)NCCOCCOCC(=O)N[C@@H]2CSSC[C@H](C(N)=O)NC(=O)[C@@H](CCCCN)NC(=O)[C@@H](CO)NC2=O)C(=O)Cn2ccc(N)nc2=O)C(=O)Cn2ccc(N)nc2=O)c(=O)[nH]c1=O	KRAS G12D RNA 20-mer	PNA/RNA duplex				melting temperature	68.8 ± 0.5 °C
CCOP(=O)(OCC)Oc1nc(Cl)c(Cl)cc1Cl	neuropathy target esterase (NEST)	enzyme activity		20 min, median of reported values		IC50	0.2 µM
methylarsonous diiodide	reduced thiol groups	binding				Kd	0.013 to 0.106 µM
CO[P@]1(=O)OC[C@H]2COC(=O)C2=C(C)O1	insect acetylcholinesterase	enzyme activity, inhibitor				IC50	0.0008 µM
C=C(C)[C@@H]1[C@H]2OC(=O)[C@@H]1[C@]1(O)C[C@H]3O[C@]34C(=O)O[C@H]2[C@]14C	GABA-A receptor α1β3γ2	GABA-evoked current, inhibitor, patch clamp		added: GABA EC90		IC50	3.7 µM
quinacrine mustard	F1-ATPase beta subunit	binding				Kd	27 µM
Cc1cn(CC(=O)N(CCNC(=O)CN(CCNC(=O)CN(CCNC(=O)CN(CCNC(=O)CN(CCNC(=O)CN(CCNC(=O)CN(CCNC(=O)CN(CCNC(=O)CN(CCNC(=O)CN(CCNC(=O)COCCOCCNC(=O)COCCOCCNC(=O)[C@H](CNC(=O)[C@H](CNC(=O)[C@H](CNC(=O)[C@H](CNC(=O)COCCOCCNC(=O)CN2CCN(CC(=O)O)CCN(CC(=O)O)CCN(CC(=O)O)CC2)NC(=O)COCCOCCNC(=O)CN2CCN(CC(=O)O)CCN(CC(=O)O)CCN(CC(=O)O)CC2)NC(=O)[C@H](CNC(=O)COCCOCCNC(=O)CN2CCN(CC(=O)O)CCN(CC(=O)O)CCN(CC(=O)O)CC2)NC(=O)COCCOCCNC(=O)CN2CCN(CC(=O)O)CCN(CC(=O)O)CCN(CC(=O)O)CC2)NC(=O)[C@H](CNC(=O)[C@H](CNC(=O)COCCOCCNC(=O)CN2CCN(CC(=O)O)CCN(CC(=O)O)CCN(CC(=O)O)CC2)NC(=O)COCCOCCNC(=O)CN2CCN(CC(=O)O)CCN(CC(=O)O)CCN(CC(=O)O)CC2)NC(=O)[C@H](CNC(=O)COCCOCCNC(=O)CN2CCN(CC(=O)O)CCN(CC(=O)O)CCN(CC(=O)O)CC2)NC(=O)COCCOCCNC(=O)CN2CCN(CC(=O)O)CCN(CC(=O)O)CCN(CC(=O)O)CC2)NC(=O)[C@H](CNC(=O)[C@H](CNC(=O)[C@H](CNC(=O)COCCOCCNC(=O)CN2CCN(CC(=O)O)CCN(CC(=O)O)CCN(CC(=O)O)CC2)NC(=O)COCCOCCNC(=O)CN2CCN(CC(=O)O)CCN(CC(=O)O)CCN(CC(=O)O)CC2)NC(=O)[C@H](CNC(=O)COCCOCCNC(=O)CN2CCN(CC(=O)O)CCN(CC(=O)O)CCN(CC(=O)O)CC2)NC(=O)COCCOCCNC(=O)CN2CCN(CC(=O)O)CCN(CC(=O)O)CCN(CC(=O)O)CC2)NC(=O)[C@H](CNC(=O)[C@H](CNC(=O)COCCOCCNC(=O)CN2CCN(CC(=O)O)CCN(CC(=O)O)CCN(CC(=O)O)CC2)NC(=O)COCCOCCNC(=O)CN2CCN(CC(=O)O)CCN(CC(=O)O)CCN(CC(=O)O)CC2)NC(=O)[C@H](CNC(=O)COCCOCCNC(=O)CN2CCN(CC(=O)O)CCN(CC(=O)O)CCN(CC(=O)O)CC2)NC(=O)COCCOCCNC(=O)CN2CCN(CC(=O)O)CCN(CC(=O)O)CCN(CC(=O)O)CC2)C(=O)Cn2cnc3c(=O)[nH]c(N)nc32)C(=O)Cn2ccc(N)nc2=O)C(=O)Cn2ccc(N)nc2=O)C(=O)Cn2cnc3c(N)ncnc32)C(=O)Cn2cc(C)c(=O)[nH]c2=O)C(=O)Cn2ccc(N)nc2=O)C(=O)Cn2cnc3c(N)ncnc32)C(=O)Cn2cnc3c(=O)[nH]c(N)nc32)C(=O)Cn2ccc(N)nc2=O)CC(=O)NCCN(CC(=O)NCCN(CC(=O)NCCOCCOCC(=O)N[C@@H]2CSSC[C@H](C(N)=O)NC(=O)[C@@H](CCCCN)NC(=O)[C@@H](CO)NC2=O)C(=O)Cn2ccc(N)nc2=O)C(=O)Cn2ccc(N)nc2=O)c(=O)[nH]c1=O	KRAS G12D RNA 20-mer	PNA/RNA duplex				melting temperature	74.1 ± 1 °C
CNC(=O)Oc1cccc2ccccc12	acetylcholinesterase 1 (Anopheles gambiae)	enzyme activity, inhibitor		concentration not given		bimolecular inactivation rate	7330 M⁻¹ s⁻¹
CN[C@H](CC(=O)O)C(=O)O	kainate receptor rat	[3H]kainate displacement	brain synaptosomes			IC50	> 100 µM
C=C(C)[C@@H]1[C@H]2OC(=O)[C@@H]1[C@]1(O)C[C@H]3O[C@]34C(=O)O[C@H]2[C@]14C	GABAA receptor	ion current, inhibitor, whole-cell patch clamp	cells expressing recombinant receptors			IC50	~4 µM
COC(=O)[C@@H]1C[C@H](OC(C)=O)C(=O)[C@H]2[C@@]1(C)CC[C@H]1C(=O)O[C@H](c3ccoc3)C[C@]21C	mu opioid receptor	binding				Ki	> 1 µM
CCCC(=O)SCC[N+](C)(C)C	acetylcholinesterase 1 (Anopheles gambiae)	substrate		added: acetylthiocholine	relative to: acetylthiocholine Vmax	relative Vmax	0.11
Cc1c(N2CC[C@@H](CN)C2)c(F)cc2c(=O)n(N)c(=O)n(C3CC3)c12	Escherichia coli gyrase GyrA S83W				relative to: wild type over mutant	loss of DNA cleavage potency	~5.6 fold
Cc1cc(O)cc(C)c1C[C@H](N)C(=O)N[C@H](CCCNC(=N)N)C(=O)N[C@@H](Cc1ccccc1)C(=O)N[C@@H](CCCCN)C(N)=O	delta opioid receptor	muscle contraction, antagonist	mouse vas deferens			Ke	inactive

Excerpt of the above:
Molecule	target	test	test system	setting	how to read	measurement	value
dimethyl sulfoxide	acetylcholinesterase Electrophorus electricus					Ki	80000 µM
C=C(C)[C@@H]1[C@H]2OC(=O)[C@@H]1[C@]1(O)C[C@H]3O[C@]34C(=O)O[C@H]2[C@]14C	GABA-A receptor α1β3γ2	GABA-evoked current, inhibitor, patch clamp		added: GABA EC90		IC50	3.7 µM
